Assay results from different studies.
Numbered parts are unrelated; each lists some results of a single study. Positions count from the first letter of the parent shown.

Block 1 — target: CREBRF, bZIP domain (human); technique: DHFR protein complementation; medium: yeast; baseline: wild-type JUN-FOS pair; direction: higher = stronger binding
Notes: single substitutions, most at no-binding floor
Parent: JUN, bZIP domain (human); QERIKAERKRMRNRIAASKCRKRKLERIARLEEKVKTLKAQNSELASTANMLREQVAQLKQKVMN; partner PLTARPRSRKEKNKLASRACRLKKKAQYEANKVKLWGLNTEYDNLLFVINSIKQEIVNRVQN
Substitution | binding fitness
T37Q | -1.56 natural log
E54Q | -1.38 natural log
E44N | -1.47 natural log
A57L | -1.57 natural log
N42W | -1.35 natural log
S47L | -1.5 natural log
A40Q | -1.31 natural log
A49C | -1.49 natural log
E32Q | -1.47 natural log
L31A | -1.49 natural log
E33A | -1.53 natural log
L52D | -1.52 natural log
A46V | -1.36 natural log

Block 2 — technique: RNA Bind-n-Seq; form: RNA; medium: in vitro; tested at: 1 µM; notes: whole 134-nt RNA, ends assumed; added: 150 mM KCl; baseline: input library; direction: higher = stronger binding
Target: Ras GTPase-activating protein-binding protein 1, C-terminal RGG region (G3BP1, Homo sapiens, UniProt Q13283)
Sequence of UniProt Q13283 (whole entry, looked up): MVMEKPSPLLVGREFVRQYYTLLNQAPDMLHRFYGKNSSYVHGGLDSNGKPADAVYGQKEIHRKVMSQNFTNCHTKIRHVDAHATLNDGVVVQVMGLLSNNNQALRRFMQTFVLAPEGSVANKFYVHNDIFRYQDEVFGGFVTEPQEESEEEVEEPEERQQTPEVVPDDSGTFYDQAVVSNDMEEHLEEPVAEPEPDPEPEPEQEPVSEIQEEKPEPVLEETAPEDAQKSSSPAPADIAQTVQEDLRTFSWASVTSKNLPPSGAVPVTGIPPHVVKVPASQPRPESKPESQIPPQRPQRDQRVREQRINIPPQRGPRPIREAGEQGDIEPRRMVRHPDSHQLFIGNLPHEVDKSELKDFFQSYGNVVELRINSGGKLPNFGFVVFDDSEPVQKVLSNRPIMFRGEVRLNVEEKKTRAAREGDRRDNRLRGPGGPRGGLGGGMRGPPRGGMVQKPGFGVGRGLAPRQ
Constant ends, left off below: GGGAGUUCUACAGUCCGACGAUC … UGGAAUUCUCGGGUGUCAAGG
Sequence | log2 enrichment
UCCUGUGCUACACAUCGUAUGUACCGAAUCAAAUUUAAAUUUUUUUAAAUUUUUUUAAAAAAGUAUUAUGUUACGCCGUUCGGAUCUGCA | -1.45
AGUCCUGUGCUACACAUCGUAUGUACCGAAUCGGGGUUUGGGGUUUGGGGUUUGGGGAAAGUAUUAUGUUACGCCGUUCGGAUCUGCACU | 3.7
AAGUCCUGUGCUACACAUCGUAUGUACCGAAUCGGGGAAAAGGAAAAGGGGAAAAGGAAAGUAUUAUGUUACGCCGUUCGGAUCUGCACU | -1.34
CCUGUGCUACACAUCGUAUGUACCGAAUCGGGGUUUUUUGGUUUUUUGGGGUUUUUUGGGGAAAGUAUUAUGUUACGCCGUUCGGAUCUG | -1.38
UUGUUUUUUUUUUGUUCUUUUUUUCCAUGUCACUAAAGGCCCUCGGGACCAAGGAUCACGUCAUGACUCCGGUGAGUUCACACGUGGUGG | -1.01
CAAGUCCUGUGCUACACAUCGUAUGUACCGAAUCGGUUUUUGGUUUUUUUGGAGGAAAGUAUUAUGUUACGCCGUUCGGAUCUGCACUUC | -1.5
CAAGUCCUGUGCUACACAUCGUAUGUACCGAAUCGGGGUUUGGUUUGGGUUUGGGGAAAGUAUUAUGUUACGCCGUUCGGAUCUGCACUU | -0.826
GUCCUGUGCUACACAUCGUAUGUACCGAAUCGGGUUUUUGGGUUUUUGGGGUUUUUGGGAAAGUAUUAUGUUACGCCGUUCGGAUCUGCA | -0.038
CAAGUCCUGUGCUACACAUCGUAUGUACCGAAUCGGAAAAAAAGGUGGUUUUUGGAAAGUAUUAUGUUACGCCGUUCGGAUCUGCACUUC | -1.78
UUGAUGUUAGUAAAUUUGGUGUAAUACGUGGGGCUUCCAUAUUUCAAAGUGGAAGCUUUCUUCUCUGAAGUCGAUAUAUGGUUUUGAAUU | -1.26
CAAGUCCUGUGCUACACAUCGUAUGUACCGAAUCGGCCCGGGGCCCGGGCCCGGGGAAAGUAUUAUGUUACGCCGUUCGGAUCUGCACUU | -1.86
UCCUCAAGUCCUGUGCUACACAUCGUAUGUACCGAAUCGGCGGGCGGGGCGGAAAGUAUUAUGUUACGCCGUUCGGAUCUGCACUUCCAG | -0.543
GUCCUGUGCUACACAUCGUAUGUACCGAAUCGGGGAAAAAGGGGAAAGGGGAAAGGGGAAAGUAUUAUGUUACGCCGUUCGGAUCUGCAC | 3.18
AAGUCCUGUGCUACACAUCGUAUGUACCGAAUCGGGUGGGAAAAAAAGGGAAAGGGAAAGUAUUAUGUUACGCCGUUCGGAUCUGCACUU | 0.503

Block 3 — technique: protein binding microarray; form: double-stranded DNA, one strand shown; medium: in vitro; tested at: not given; baseline: not given; direction: higher = stronger binding
Target: Histone acetyltransferase KAT6A, winged helix 2, GST fusion (KAT6A, Homo sapiens, UniProt Q92794, residues 85-181)
Notes: 8-mer, flanks averaged, mean of 2 arrays, mostly near background
Residues (chain): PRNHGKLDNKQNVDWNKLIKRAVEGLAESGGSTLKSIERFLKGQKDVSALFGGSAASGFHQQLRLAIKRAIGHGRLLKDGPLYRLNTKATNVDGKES
Sequence | E-score
AGTAGCGC | -0.0598
AGCTGACG | 0.07
CTACGAAG | -0.157
CACACCTG | -0.031
ATCCACCC | -0.161
GACAGGAC | 0.0864
ACAAACAT | -0.0578
CAGTTTGC | 0.0447
CTCCTGAC | 0.011
CTCTTAAA | 0.107
TGTCAGAA | 0.0929
ACCTACCA | -0.114
CCGACTCC | 0.00136
GACAGAGA | -0.0576
ACATCTTA | -0.0331
AGATAAGA | 0.0432
AGTATAAC | 0.0502
CCGGCTAG | 0.146
ACTTAATA | 0.0564
TGGAACCA | 0.0383
ACCCTATA | -0.217
ATGAGGGG | -0.0519
AGTAATCC | -0.101
CGCTCAGC | 0.229
ACCAATAG | -0.142

Block 4 — target: CCNB1, cyclin fold, Cln2 fusion (human); technique: yeast growth competition, sequencing; medium: yeast; notes: weak parent motif; baseline: not given; direction: higher = stronger binding
Parent: WEE1 docking peptide (human); HKTFRKLRLFDTP
Substitution | normalised enrichment score
HKTFRKLRGFDTP [L9G] | 1.02
HFTFRKLRLFDTP [K2F] | 0.412
HKTFRKLFLFDTP [R8F] | 0.43
HKTFRKLRLFDTG [P13G] | -0.383
HKTFRKLRLFDGP [T12G] | 1.5
RKTFRKLRLFDTP [H1R] | 2.09
HKTFRDLRLFDTP [K6D] | 0.688
HKTFRKLRLFHTP [D11H] | -0.401
HKTFLKLRLFDTP [R5L] | 0.083
LKTFRKLRLFDTP [H1L] | 0.85
HKEFRKLRLFDTP [T3E] | 0.274
HKTFRKLLLFDTP [R8L] | 0.704
HKTKRKLRLFDTP [F4K] | 0.644

Block 5 — technique: RNA Bind-n-Seq; form: RNA; medium: in vitro; tested at: 365 nM; baseline: no-protein control; direction: higher = stronger binding
Target: RNA binding protein fox-1 homolog 2, RRM domain, GST-SBP tag (RBFOX2, Homo sapiens, UniProt O43251-10, residues 100-194)
Notes: natural RNA segment, single round, ends assumed
Constant ends, left off below: GGGAGUUCUACAGUCCGACGAUC … UGGAAUUCUCGGGUGCCAA
Construct (chain): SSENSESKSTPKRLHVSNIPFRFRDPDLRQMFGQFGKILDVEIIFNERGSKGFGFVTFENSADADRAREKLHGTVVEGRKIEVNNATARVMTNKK
Sequence | RBNS enrichment (R)
GUCAUAAGGAGUCAGAUUCCGUGACCUCCUCUUUGAUGGAGGACACACUGAACUGAAGGGGACUUGCGCGGAUGUGGGAGAUGCAAGCCUUCGCUUUAUUUUUUUAUAAC | 0.828
AUUUUUCUUCGCUGUUACGAAUUUACAGCAGCAUUUGUACAUGUAAAAUUAAAGGCUAUUUUCUGGUCUGGUUUGGUAUGUCUAGAGUUCUUCAGUUGAAGCCAAGGCAC | 1.38
UCAAAGGUAACAUGCAACUUAGUUCUGUUAUAUGAGAGUCUUUUUCUUUAAUGUACUGGAAAAAGCCUAUGUGAAUCUGUUGAUAGAAUUUAAAAUUCCAGGCCGGGCGU | 0.532
CAACUCCUUGUCGUCCUAAUCUGCAAACCCAGACCCAGACCCUUUCCGCAGCCGCCUCCUCUUCCUCCAGAGGCAACAUUCCUUAUUCACCAACUAGUCUCAAAAGAUUG | 0.541
UAAACUGCUCCUCUCAGCGCUUGACACCUCUGUGUGAGGGAGACCAACCUUCGCACCCAUCCGCCCCCGCAGGCCUGGGGAGAACACAGAUAUGCUUGCACAGGCUGUGG | 0.482
AAUGUAUGCAUUCAUCCAACAGAGUUAUUUAUUGGCUGGAGAUGGAAAAUCACACCACCUGACAGGCCUUCUGGGCCUCCAAAGCCCAUCCUUGGGGUUCCCCCUCCCUG | 0.46
CAGGGCUUUUUAUAACUAAAACCAGUUCACUAGAGACCUAGGAAUGGGCUGGGCUGAAAGUGAAAUAUUUUCUCCCUGGAUUUUUACCAGCCAUCACCUUGGACCACCAA | 0.373
GGGCUGGGUCAUUGGGCCUGCAGCAGCAUCUGCCCAGAUGCAUCCAAGAACUUGUUAACCCUCCCUUAGCCCCUGCCCAUCCAAAGCUGGGCACACGCCUCAGAGCUGCC | 0.329
AUAUCUCUGUAAAAACAAACACUGUAACUUCUAAAUAAAUGUUUAGUCUUCCUUGUAACCUUCAUCUAGUCACGAGUGAGUCAGCGUUUUCUUUAGACGUCCGGCGUCCC | 0.185
AUAGAGAAGCCAUGGUUUCUGCUUCUCUCCAGGAGUCAGGCUUGCCACUCCAGCUGGGCCGGUGUGCAGUGGGCCAGGGUCCUCACCUGCCUUGCAGACCCUGGUUCCCG | 1.64
CAAAUGUGAGUCUCCUGAUCAAUUUAAAUGUUUGAGAUUGAAUAUCUAAUUAAUAAUUCAAUUUUGAAAAUUCUCAAAAAAAUUUGAGGAUUUAAGCCUAGGGAUUUUAU | 1.24
CUGCAGAAUAGAGCAGAAUAGAGAAAGUAAGCCUGAAGCUGAGUGCCUCAGCCACAAACCUAAAGGAGCUGCCUGUGUCUGACAGCACAGCCAUUCCAUCUCUUCCGUCC | 0.264

Block 6 — technique: universal PBM; form: double-stranded DNA, one strand shown; medium: in vitro; tested at: 600 nM; direction: higher = stronger binding
Target: Sal-like protein 4, full length isoform A (SALL4, Homo sapiens, UniProt Q9UJQ4, residues 1-1053)
Sequence of UniProt Q9UJQ4 (whole entry, looked up): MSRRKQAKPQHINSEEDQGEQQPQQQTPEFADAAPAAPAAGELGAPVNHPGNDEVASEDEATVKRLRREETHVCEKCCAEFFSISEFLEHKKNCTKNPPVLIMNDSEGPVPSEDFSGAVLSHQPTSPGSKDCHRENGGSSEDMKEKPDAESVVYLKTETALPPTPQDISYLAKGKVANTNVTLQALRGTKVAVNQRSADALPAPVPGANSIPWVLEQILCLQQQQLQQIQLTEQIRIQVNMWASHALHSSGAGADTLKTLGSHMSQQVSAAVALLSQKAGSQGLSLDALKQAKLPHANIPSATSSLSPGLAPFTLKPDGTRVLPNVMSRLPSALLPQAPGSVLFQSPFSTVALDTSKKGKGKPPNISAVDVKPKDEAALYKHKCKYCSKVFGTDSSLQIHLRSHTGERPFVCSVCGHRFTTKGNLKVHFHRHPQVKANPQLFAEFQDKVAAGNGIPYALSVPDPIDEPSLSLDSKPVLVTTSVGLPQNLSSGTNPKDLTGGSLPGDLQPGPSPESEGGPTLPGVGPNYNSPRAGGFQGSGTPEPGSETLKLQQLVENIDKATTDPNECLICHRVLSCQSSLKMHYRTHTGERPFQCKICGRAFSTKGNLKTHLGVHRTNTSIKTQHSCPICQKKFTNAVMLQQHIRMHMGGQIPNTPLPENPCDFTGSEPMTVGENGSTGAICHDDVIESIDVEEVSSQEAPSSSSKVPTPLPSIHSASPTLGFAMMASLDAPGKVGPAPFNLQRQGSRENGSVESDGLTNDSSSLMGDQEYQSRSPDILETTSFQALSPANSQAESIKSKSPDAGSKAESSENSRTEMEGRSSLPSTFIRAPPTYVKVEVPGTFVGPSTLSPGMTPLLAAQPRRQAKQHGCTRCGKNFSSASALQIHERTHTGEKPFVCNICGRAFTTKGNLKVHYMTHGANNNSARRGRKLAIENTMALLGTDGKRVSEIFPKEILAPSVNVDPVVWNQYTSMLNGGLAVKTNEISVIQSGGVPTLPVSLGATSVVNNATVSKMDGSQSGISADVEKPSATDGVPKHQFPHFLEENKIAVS
Notes: 8-mer, flanks averaged, mean of replicates
Sequence | E-score
GGAGCCCC | -0.428
GTCTAACA | 0.0526
GGGAGACA | -0.221
TTCCAGAA | 0.139
ACGGACCG | -0.332
CTGACAGA | 0.0481
ATCGTGAG | -0.115
AGGATGAC | -0.0319
ATCCTGGG | -0.229
CAACACTC | -0.0273
GATCCGAA | -0.074
CTCGGCAA | -0.128
AGATTACT | 0.205
CACACCTC | -0.201
ACTGCACG | -0.149
CGGTAGGA | -0.184
CGAAAAAC | 0.094
GCTTCGCC | -0.308
AACAGTCT | 0.0508
GATTAGAA | 0.13
CCTGTGAG | -0.104
ACAAACGC | -0.0201
AGGAATAG | 0.159
ATACCAGC | -0.0656
GAGTTGGA | -0.0329

Further values, each from its own experiment
Molecule | target | assay | system | conditions | how to read | measurement | result
PhoQ, residues 284 288 289 292 302 303 SVHLDV | PhoP, residues 12 14 15 18 19 TQAIL (Escherichia coli, UniProt P23836) | Sort-seq, item: YFP reporter | E. coli | PhoQ-PhoP variant library, added: 10 µM Mg2+ | baseline: high Mg2+ state, higher = stronger signaling | fold induction | 37.8
